Measured values from different studies.
Protocols differ between the studies behind these lines. “And” joins repeats or separate records; there may be more than shown. ± marks the error that the study gave.

For `Cn1ncnc1[C@H]1c2n[nH]c(=O)c3cc(F)cc(c23)N[C@@H]1c1ccc(F)cc1`, the Ctrough was 3.9 ± 2.5 ng/mL (human patients, plasma; oral, 600 µg/m2/day, day 5).
Under “Freundlich coefficient KF”, `COc1ccnc(C(=O)N[C@H]2COC(=O)[C@H](Cc3ccccc3)[C@@H](O)[C@H](C)OC2=O)c1O` is recorded as 11.7 mL/g (soil adsorption; clay loam soil; pH 7.2, organic carbon 4.4 %).
Under “daily mean concentration”, `C[C@H](CCC(=O)NCCS(=O)(=O)O)[C@H]1CC[C@H]2[C@@H]3CC[C@@H]4C[C@H](O)CC[C@]4(C)[C@H]3C[C@H](O)[C@]12C` is recorded as 41.3 ± 8.5 nM (human, plasma; endogenous baseline diurnal).
`NC(=O)c1cc(Oc2ccc(NC(=O)Nc3ccc(Cl)c(C(F)(F)F)c3)c(F)c2)cc[n+]1[O-]` — result for “metabolite to parent AUC ratio”: 0.51% (Oatp1b2 knockout mice, plasma; oral, molecular weight corrected, added: regorafenib single dose).
`CNC(=O)COc1ccc(NS(=O)(=O)c2cc(Cl)cc(Cl)c2O)cc1` — result for “DLS scattered light intensity”: 2.86e+07 counts/s (colloidal aggregate formation, dynamic light scattering; 50 mM potassium phosphate buffer; 200 µM, pH 7.0, 1% DMSO; higher = more aggregation).
`Cc1ccc(O)c(-n2nc3ccccc3n2)c1`: “daily dermal uptake, percentile” 1940 ng/kg body weight/day (exposure assessment; human, age 16-21 years; concentration not given, cream, 95th percentile).
For `Cn1cc(Nc2nccc(-c3ccc4c(c3)CN(C3COC3)CC[C@H]4NC(=O)c3cn(C(C)(C)C)nn3)n2)cn1`, “percent change from baseline” read -3.75% (refers to: CD4+ T cell count; human, clinical trial, whole blood; 50 mg twice daily, follow-up).
Under “fraction excreted in urine”, `CN[C@@H]1COc2c(S(=O)(=O)NC(=O)Nc3c4c(cc5c3CCC5)CCC4)cnn2C1` is recorded as 0.18 (human, urine; oral, 450 mg, 0-48 h).
`CCc1ccc(C(=O)Oc2ccc(C#N)c(F)c2)cc1` has a concentration of 3.72 ng/mL (refers to: compound; human pregnant women, male fetuses, cord serum; dose not given, paired maternal-cord samples, mean).
For `CCOC(=O)C1(NS(=O)(=O)c2cc(Cl)cc(Cl)c2O)CC2(CCC2)C1`, “DLS scattered light intensity” read 666000 counts/s (colloidal aggregate formation, dynamic light scattering; 50 mM potassium phosphate buffer; 200 µM, pH 7.0, 1% DMSO; higher = more aggregation).
`NC1(C(=O)N[C@@H](CCO)c2ccc(Cl)cc2)CCN(c2nc[nH]c3nccc2-3)CC1`: “incidence of Diarrhoea” 66.7% (metastatic CRPC patients; dose not given, any grade, treatment-related, all doses, added: enzalutamide 160 mg daily).
With `CCOc1c([C@H](C)n2nc(C)c3c(N)ncnc32)cc(Cl)c(F)c1[C@@H]1CNC(=O)C1` the ECG observations was 100% (refers to: QRS ≤100 ms; previously treated B-cell malignancy; oral, 45 mg once daily, baseline below thresholds).
`Cc1cc(-c2nnc(N)nc2-c2ccc(F)cc2)cc(Cl)n1` — result for “patients with treatment-related AE”: 80% (human, IO-naive mCRPC; oral, dose not given, phase Ia/Ib, any grade).
`[Cl-].c1csc([I+]c2cccs2)c1` — result for “lean body mass loss”: under 10% (athymic mouse; 6 mg/kg, several weeks, added: DPI 2 mg/kg; relative to: baseline).
With `COc1ccnc(C[S+]([O-])c2nc3ccc(OC(F)F)cc3[nH]2)c1OC` (centres unmarked) the CL was 155 mL/min (human, plasma; intravenous, median).
For `COc1ccc([C@@H](O)c2cc(-c3ncnc4cc(N5CCOCC5)ccc34)c(F)cc2Cl)nn1`, “asthenia TEAE incidence” read 0% (locally advanced rectal cancer patients; 100 mg, added: capecitabine and radiotherapy).
The Tmax of `O=C(O)CCC(=O)O.[2H]C([2H])([2H])Oc1cc(C)c2[nH]ccc2c1CN1CC[C@@H](C2CC2)C[C@H]1c1ccc(C(=O)O)cc1` is reported as 4 h (LC-MS/MS, median; human, plasma; 400 mg, single dose, fasting).
Under “grade ≥3 Fatigue patients”, `COc1cc2nccc(Oc3ccc(NC(=O)c4cc5c(n(-c6ccccc6)c4=O)CCCC5=O)nc3)c2cc1OC` is recorded as 10% (relapsed or refractory AML; oral, all dose levels).
`Cc1cc(Nc2ccc(S(F)(F)(F)(F)F)cc2)n2nc(C(C)(F)F)nc2n1`: “adverse event Thrombocytopenia” 0% (Plasmodium falciparum malaria patients; oral, 250 mg).
`C/C(=N\c1ccc(O)cc1)c1cc2ccccc2n1C` gave a remaining compound of 93.1 ± 3.4% (processed rat plasma sample; 1.5 ng/mL, 24 h, room temperature, autosampler tray; relative to: nominal).
`CC(C)(C(=O)N1CCOc2c(C#N)cncc2C1)C(F)F` — result for “subjects with adverse event”: 0% (refers to: Constipation; human; oral, 10 mg, CSF pharmacokinetic cohort).
`C[C@H](O)C(=O)C1=Nc2c(nc(N)[nH]c2=O)NC1`: “moderate TEAE incidence” 0% (healthy human volunteers; oral, 20 mg/kg, 4 days, monotherapy; relative to: subjects).
`CN(CCC(=O)O)C(=O)c1ccc2c(c1)CC[C@@H]1[C@@H]2CC[C@]2(C)C(c3cncc(F)c3)=CC[C@@H]12` has a total bilirubin of 0.8 mg/dL (premenopausal women, endometriosis pain, serum; 60 mg twice daily, visit 4, median).
`Cc1c(-c2ccc(N3CCc4cccc(C(=O)Nc5nc6ccccc6s5)c4C3)nc2C(=O)O)cnn1CC12CC3(C)CC(C)(C1)CC(OCCNCC[C@H](O)CO)(C3)C2` — result for “PR interval change”: 0 ms (beagle dog, anaesthetised; intravenous infusion, 0.3 mg/kg/min, 90 min; relative to: vehicle).
The Tmax, median of `CC#CC(=O)N1CC[C@@H](n2c(=O)n(-c3ccc(Oc4ccccc4)cc3)c3c(N)ncnc32)C1` is reported as 2.93 h (human, fasting, plasma; oral, 480 mg once daily, cycle 1 day 1).
Under “urinary phosphate excretion change”, `Cc1ccc([C@@H]2O[C@H](CO)[C@@H](O)[C@H](O)[C@H]2O)cc1Cc1ccc(-c2ccc(F)cc2)s1` is recorded as 5.79 mg (refers to: inorganic phosphorus; Japanese type 2 diabetes patients; 100 mg, day 17, 24 h urine collection; relative to: baseline).
For `Cc1ccc(Sc2ccccc2N2CCNCC2)c(C)c1`, “participants with TEAE” read 33.3% (refers to: any TEAE; healthy adult men; oral, 5 mg daily, 12 days).
For `CCn1cc(C(=O)N2CCOCC2)c(=O)c2cc(NC3Cc4ccccc4C3)cnc21`, the Tmax was 4 h (human, fed; oral suspension, 600 mg/day twice daily, day 8, median).
Under “DLS scattered light intensity”, `C[C@@H]1C[C@@]1(C(=O)O)C(=O)NCc1ccc(Cl)c(Cl)c1` is recorded as 1.37e+06 counts/s (colloidal aggregate formation, dynamic light scattering; 50 mM potassium phosphate buffer; 200 µM, pH 7.0, 1% DMSO; higher = more aggregation).
For `O=C(Nc1nc2cccc(-c3ccc(CN4CCS(=O)(=O)CC4)cc3)n2n1)C1CC1`, “patients with metabolism disorders” read 0% (rheumatoid arthritis patients; oral, 100 mg twice daily, 4 weeks, regardless of relatedness).
Under “vessel puncture site haematoma”, `Cc1cc(-c2nccc3c2ccn3CC(=O)Nc2ccc(-c3cnccn3)cn2)ccn1` is recorded as 0% (human; 15 mg once daily, multiple ascending dose).
`CC1(C(=O)O)CCC(C(=O)Nc2ccc(Nc3ccccc3)cc2)C1(C)C` (centres unmarked) has an HC50 of over 128 µg/mL (haemolysis; sheep erythrocytes; 1 h, pH 7.5).
With `c1ccc(-c2nc(N3CCC(c4ccccn4)C3)c3ccccc3n2)nc1` (centres unmarked) the blood concentration was 153 ng/mL (female Balb/c mice, blood; intravenous, 2 mg/kg, 8 h, mean, added: 1-aminobenzotriazole co-dosed).
With `CCc1cc(C(=O)NC)c2nccc(N3CCc4c(cc(Cn5ccnc5)cc4-c4cn(C)nc4C(F)(F)F)C3=O)c2c1` the blood MCHC was 299 ± 5.6 g/L (Sprague Dawley rats; oral, 100 mg/kg once daily, 7 days).
`C=CCN1CC(=O)N2[C@@H](Cc3ccc(O)cc3F)C(=O)N(Cc3cccc(N4CC(N5CCN(CC)CC5)C4)n3)C[C@@H]2N1C(=O)NCc1ccccc1`: “treatment-related AST increased” 0% (advanced solid tumour patients; oral, 80 mg twice daily, grade ≥3, dose-escalation).
`O=C1CCCN1Cc1ccc(NS(=O)(=O)c2cccc(Cl)c2O)cc1` — result for “DLS scattered light intensity”: 448000 counts/s (colloidal aggregate formation, dynamic light scattering; 50 mM potassium phosphate buffer; 200 µM, pH 7.0, 1% DMSO; higher = more aggregation).
The stability of `O=C(N/N=C/c1ccccc1O)c1ccncc1` is reported as 99.6% (ADS buffer; 4 µM, 12 h, 5 °C, post-preparative, autosampler).
Under “patients with adverse event”, `CNC(=O)c1ccc(-c2cnc3ncc(Cc4ccc5ncccc5c4)n3n2)cc1F` is recorded as 0% (refers to: Pruritus, all grades; hepatocellular carcinoma patients; oral, 600 mg twice daily, expansion cohort, any causality).
For `Nc1ccn([C@@H]2O[C@H](CO)[C@@H](O)C2(F)F)c(=O)n1`, the Cmax, mean was 16100 ng/mL (refers to: dFdU; human, plasma; intravenous, 800 mg/m^2, added: after paricalcitol).
With `Cc1nc(-c2ccc(OCC(C)C)c(C#N)c2)sc1C(=O)O` the pyrexia incidence was 5% (healthy Chinese subjects; oral, 40 mg, fed).
For `CC[C@H](C)[C@H](NC(=O)[C@H](Cc1ccccc1)NC(=O)[C@H](CCC(=O)O)NC(=O)[C@H](CCCCNC(=O)COCCOCCNC(=O)COCCOCCNC(=O)CC[C@H](NC(=O)CCCCCCCCCCCCCCCCC(=O)O)C(=O)O)NC(=O)[C@H](C)NC(=O)[C@H](C)NC(=O)[C@H](CCC(N)=O)NC(=O)CNC(=O)[C@H](CCC(=O)O)NC(=O)[C@H](CC(C)C)NC(=O)[C@H](Cc1ccc(O)cc1)NC(=O)[C@H](CO)NC(=O)[C@H](CO)NC(=O)[C@@H](NC(=O)[C@H](CC(=O)O)NC(=O)[C@H](CO)NC(=O)[C@@H](NC(=O)[C@H](Cc1ccccc1)NC(=O)[C@@H](NC(=O)CNC(=O)[C@H](CCC(=O)O)NC(=O)C(C)(C)NC(=O)[C@@H](N)Cc1cnc[nH]1)[C@@H](C)O)[C@@H](C)O)C(C)C)C(=O)N[C@@H](C)C(=O)N[C@@H](Cc1c[nH]c2ccccc12)C(=O)N[C@@H](CC(C)C)C(=O)N[C@H](C(=O)N[C@@H](CCCNC(=N)N)C(=O)NCC(=O)N[C@@H](CCCNC(=N)N)C(=O)NCC(=O)O)C(C)C`, “placebo-subtracted change in QTcI” read -5.4 ms (QT interval corrected for heart rate, 12-lead Holter ECG; healthy human subjects; subcutaneous, 1.5 mg once weekly, 48 h post-dose, steady state; relative to: placebo, time-matched baseline).
The Cmax of `COc1ccc2[nH]c([S+]([O-])Cc3ncc(C)c(OC)c3C)nc2c1` (centres unmarked) is reported as 521 ± 311 ng/mL (healthy Chinese volunteers, plasma; oral, 20 mg, enteric-coated tablets, CYP2C19 intermediate metabolizers).
`Cc1nc(-c2ccc(OCC(C)C)c(C#N)c2)sc1C(=O)O` has a body weight of 23.8 g and 24.2 g and 24.8 g and 25 g and 24.4 g and 25.8 g (KM mouse, chronic hyperuricaemia model; dose not given, day 0).
For `O=C(O)CC[C@H](NC(=O)N[C@@H](CCCCNC(=O)[C@H](Cc1ccc2ccccc2c1)NC(=O)[C@H]1CC[C@H](CNC(=O)CN2CCN(CC(=O)O)CCN(CC(=O)O)CCN(CC(=O)O)CC2)CC1)C(=O)O)C(=O)O`, the tumour-to-tissue ratio was 424 ± 174 (male BALB/c nude mice, LS174T-PSMA xenografts, blood; intravenous, 0.3 nmol, 2 h, radiolabelled (111In or 99mTc); relative to: tumour over blood).
For `CCCCC1=NC2(CCCC2)C(=O)N1Cc1ccc(-c2ccccc2S(=O)(=O)Nc2noc(C)c2C)c(COCC)c1`, the AUC(0-inf) was 63600 ng·h/mL (healthy adult volunteers, plasma; oral, 400 mg, 14 days repeated dosing, fasted, crushed tablet).
Under “stability relative error”, `C=CC(=O)N1CCC([C@@H]2CCNc3c(C(N)=O)c(-c4ccc(Oc5ccccc5)cc4)nn32)CC1` is recorded as 0.2% (rat plasma; 400 ng/mL, three freeze-thaw cycles; relative to: nominal concentration).
With `O=C(C[n+]1cc(-c2ccc(Cl)cc2)n2c1CCC2)Nc1ccc(Cl)c(Cl)c1` the HC50 was over 128 µg/mL (haemolysis; sheep erythrocytes; 1 h, pH 7.5).
`CC1CC(C(=O)O)N1C(=O)CCCCc1nc2ccccc2s1` (centres unmarked) — result for “DLS scattered light intensity”: 633000 counts/s (colloidal aggregate formation, dynamic light scattering; 50 mM potassium phosphate buffer; 200 µM, pH 7.0, 1% DMSO; higher = more aggregation).
For `O=c1[nH]c(=O)n([C@@H]2O[C@H](CO)[C@@H](O)[C@@H]2F)cc1CCC[18F]`, the blood concentration was 0.15 ± 0.08 %ID/g (nude mice, RG2 tumour, blood; intravenous, dose not given, 2 h, co-injection).
For `CN1C(=O)[C@@H](NC(=O)c2nnc(Cc3ccccc3)[nH]2)COc2cccnc21`, “participants with any TEAE” read 50% (phase I multiple ascending dose; human, male and female; oral, 100 mg, 14 days).
Under “participants with TEAEs”, `C[C@@H](N)C1CCN(S(=O)(=O)c2cccc3cnccc23)CC1` is recorded as 37.5% (healthy volunteers; 25 mg and 250 mg combined, fasted).
The half-life of `C[C@@H](Oc1ccc(S(C)(=O)=O)cc1C(=O)N1C[C@@H]2C[C@]2(c2cc(C(F)(F)F)on2)C1)C(F)(F)F` is reported as 40.9 h (LC-MS/MS; elderly human subjects, plasma; oral, 50 mg once daily, steady state, multiple doses).
`N#Cc1ccc2c(c1)[C@H]1CCCN(C(=O)c3ccc4[nH]cnc4c3)[C@H]1C2` gave an androstenedione level of 6.3 nmol/L (human, male; 40 mg, day 7).
